Published values of several laboratories.
Each numbered part is a random draw from the data of one study; scales do not carry over between parts. ± gives the spread as reported. In brackets after ≈: the same amount, converted by molar mass.
Chain of UniProt O14757 (whole entry, looked up): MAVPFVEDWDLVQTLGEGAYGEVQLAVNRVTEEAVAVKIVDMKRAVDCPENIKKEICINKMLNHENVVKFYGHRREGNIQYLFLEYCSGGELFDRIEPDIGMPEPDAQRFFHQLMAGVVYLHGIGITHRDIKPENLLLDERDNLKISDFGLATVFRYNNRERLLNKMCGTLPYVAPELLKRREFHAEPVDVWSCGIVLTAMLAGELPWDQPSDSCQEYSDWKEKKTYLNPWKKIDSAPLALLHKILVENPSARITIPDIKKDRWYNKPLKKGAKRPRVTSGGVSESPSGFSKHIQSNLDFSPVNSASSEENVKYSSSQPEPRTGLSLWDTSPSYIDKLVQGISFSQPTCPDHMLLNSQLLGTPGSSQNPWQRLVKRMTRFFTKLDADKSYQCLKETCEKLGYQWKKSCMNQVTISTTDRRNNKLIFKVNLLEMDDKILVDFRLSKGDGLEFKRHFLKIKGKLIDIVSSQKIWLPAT

Block 1
SMILES: CC[C@H](C)[C@H](NC(=O)[C@H](CCCCN)NC(=O)[C@H](CCC(N)=O)NC(=O)[C@H](Cc1ccccc1)NC(=O)[C@@H](NC(=O)[C@H](CCCCN)NC(=O)[C@H](CCCCN)NC(=O)[C@H](CC(C)C)NC(=O)[C@H](C)NC(=O)[C@H](CC(N)=O)NC(=O)[C@@H](N)CC(C)C)C(C)C)C(=O)N[C@@H](Cc1c[nH]cn1)C(=O)N[C@@H](CCC(=O)O)C(=O)N[C@@H](C)C(N)=O
Time: 18 h
Temperature: 37 °C
organism	method	strain	MIC
Bacillus subtilis		KCTC 1998	16 µM (≈ 26.2 µg/mL)
Klebsiella pneumoniae	broth microdilution	ATCC 13883	64 µM (≈ 105 µg/mL)
Pseudomonas aeruginosa		4007, resistant	16 µM (≈ 26.2 µg/mL)
Acinetobacter baumannii	broth microdilution	ATCC 19606	32 µM (≈ 52.4 µg/mL)
Pseudomonas aeruginosa		4891, resistant	32 µM (≈ 52.4 µg/mL)
Escherichia coli		CCARM 1238, resistant	16 µM (≈ 26.2 µg/mL)
Escherichia coli	broth microdilution	ATCC 25922	16 µM (≈ 26.2 µg/mL)

Block 2
Target: Immunoglobulin heavy constant gamma 1 (IGHG1, Homo sapiens, UniProt P01857)
Read-out: binding
Method: SPR
pH: 7.4
Together with: immobilized Herceptin
Compound	Kd [nM]
CC(=O)NCC(=O)N1CCC[C@H]1C(=O)N[C@@H](CC(=O)O)C(=O)N[C@H]1CSSC[C@@H](C(=O)N[C@H](C(=O)N[C@@H](Cc2ccccc2)C(=O)N[C@@H](Cc2c[nH]cn2)C(N)=O)[C@@H](C)O)NC(=O)[C@H](Cc2c[nH]c3ccccc23)NC(=O)[C@H](C(C)C)NC(=O)[C@H](CC(C)C)NC(=O)[C@H](CCC(=O)O)NC(=O)[C@H](C)NC(=O)[C@H](CCCCN)NC(=O)[C@H](Cc2c[nH]cn2)NC(=O)[C@H](Cc2ccc(O)cc2)NC(=O)[C@H](C)NC1=O	1720 ± 5
CC(=O)N[C@H]1CSSC[C@@H](C(=O)N[C@H](C(=O)N[C@@H](Cc2ccccc2)C(=O)N[C@@H](Cc2c[nH]cn2)C(N)=O)[C@@H](C)O)NC(=O)[C@H](Cc2c[nH]c3ccccc23)NC(=O)[C@H](C(C)C)NC(=O)[C@H](CC(C)C)NC(=O)[C@H](CCC(=O)O)NC(=O)CNC(=O)[C@H](CCCCN)NC(=O)[C@H](Cc2c[nH]cn2)NC(=O)[C@H](Cc2ccc(O)cc2)NC(=O)[C@H](C)NC1=O	1470 ± 10
CC(=O)NCC(=O)N1CCC[C@H]1C(=O)N[C@@H](CC(=O)O)C(=O)N[C@H]1CSSC[C@@H](C(=O)N[C@H](C(=O)N[C@@H](Cc2ccccc2)C(=O)N[C@@H](Cc2c[nH]cn2)C(N)=O)[C@@H](C)O)NC(=O)[C@H](Cc2c[nH]c3ccccc23)NC(=O)[C@H](C(C)C)NC(=O)[C@H](CC(C)C)NC(=O)[C@H](CCC(=O)O)NC(=O)CNC(=O)[C@H](C)NC(=O)[C@H](Cc2c[nH]cn2)NC(=O)[C@H](Cc2ccc(O)cc2)NC(=O)[C@H](C)NC1=O	171 ± 4

Further values, each from its own experiment
SMILES	tested on	test	system	setting	how to read	endpoint	value
CCOP(=O)(OCC)OCc1ccc(S(=O)(=O)CC(C[C@H]2O[C@@H]3C[C@]4(C)CC[C@H]5[C@H](C)CC[C@@H]([C@H]2C)[C@@]35OO4)C[C@H]2O[C@@H]3C[C@]4(C)CC[C@H]5[C@H](C)CC[C@@H]([C@H]2C)[C@@]35OO4)cc1	Plasmodium berghei		ANKA, infected mice	oral, 54 mg/kg single dose, 24 h post-infection		mean survival time	14.8 days
COC[C@@H](Cc1ccc(OC)c(OC)c1)[C@@H](COC)Cc1ccc(OC)c(OC)c1	Hepatitis C virus	viral replication, item: HCV negative-strand RNA	Huh-7 with HCV genotype 2a replicon, genotype 2a	48 h		EC50	250000 nM
C[C@H]1[C@@H](CC(C[C@H]2O[C@@H]3C[C@]4(C)CC[C@H]5[C@H](C)CC[C@@H]([C@H]2C)[C@@]35OO4)CS(=O)(=O)CCCCCCO)O[C@@H]2C[C@]3(C)CC[C@H]4[C@H](C)CC[C@@H]1[C@@]24OO3 (some centres unmarked)	Plasmodium berghei		ANKA, infected mice	oral, 54 mg/kg single dose, 24 h post-infection		mean survival time	11 days
CN[C@@H]1C[C@H]2O[C@@](C)([C@@H]1OC)n1c3ccccc3c3c4c(c5c6ccccc6n2c5c31)C(=O)NC4	CHEK1 (Homo sapiens, UniProt O14757)	KINOMEscan competition binding		0.5 µM	relative to: control	remaining binding	0%

For quick reference, copied from above (block 1):
organism	method	strain	MIC
Acinetobacter baumannii	broth microdilution	ATCC 19606	32 µM (≈ 52.4 µg/mL)
